{"data": "Experimental data collected from several papers", "note": "Parts stem from different laboratories: compare values within a part only. Positions count from the first letter of the parent shown."}
{"data": "Block 1", "target": "TAR DNA-binding protein 43, full length, His tag (TARDBP, Homo sapiens, UniProt Q13148, residues 1-414)", "method": "RNA Bind-n-Seq", "form": "RNA", "sample": "in vitro", "concentration": "20 nM", "setting": "6-mer, flanks averaged, single round", "added": "150 mM KCl", "baseline": "input library", "reading": "higher = stronger binding"}
{"Strand": "AUUCCA", "6-mer enrichment (R)": 0.582}
{"Strand": "CUACUU", "6-mer enrichment (R)": 0.574}
{"Strand": "ACAUUA", "6-mer enrichment (R)": 0.583}
{"Strand": "AUAGGA", "6-mer enrichment (R)": 0.855}
{"Strand": "CCUGCU", "6-mer enrichment (R)": 0.625}
{"Strand": "CUCGAA", "6-mer enrichment (R)": 0.608}
{"Strand": "CCCAUU", "6-mer enrichment (R)": 0.651}
{"Strand": "AGUCAC", "6-mer enrichment (R)": 0.634}
{"data": "Block 2", "target": "Fragile X messenger ribonucleoprotein 1, C-terminal low-complexity region (Fmr1, Mus musculus, UniProt P35922)", "method": "RNA Bind-n-Seq", "form": "RNA", "sample": "in vitro", "concentration": "200 nM", "setting": "whole 134-nt RNA, ends assumed", "added": "150 mM LiCl", "baseline": "input library", "reading": "higher = stronger binding", "each molecule": "7-deaza-guanosine replaces G"}
{"Strand": "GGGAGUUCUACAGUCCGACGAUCUAACGUUAGAGGAGGAUCUGAUGGAUAUGGCAGUGGACGUGGAUUUGGGGAUGGCUAUAAUGGGUAUGGAGGAGGACCUGGAGGUGGCAAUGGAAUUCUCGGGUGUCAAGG", "log2 enrichment": 0.0233}
{"Strand": "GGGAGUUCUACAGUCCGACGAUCCCUCAAGUCCUGUGCUACACAUCGUAUGUACCGAAUCGGAAAGGAGGUUUGGAAAGUAUUAUGUUACGCCGUUCGGAUCUGCACUUCCAGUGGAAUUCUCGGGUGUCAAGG", "log2 enrichment": -1.3}
{"Strand": "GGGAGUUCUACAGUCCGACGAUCUUUUUUGUAGUAGGGAGAUCCUUGAUCAUCAGGAUGGUAAUGUAGAAGAUGAUGGGCUUACAGGACUCCUAAGGCUUGCAACAAGUGUUGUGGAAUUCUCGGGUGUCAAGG", "log2 enrichment": -0.385}
{"Strand": "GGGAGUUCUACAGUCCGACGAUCUGGGAGGUGGAUUUUGUUCAUUUUUUUAGCUCAUUUCCAGGGGUGGGAAUUUUUUUUUAAUAUGUGUCAUGAAUAAAGUUGUUUUUGAAAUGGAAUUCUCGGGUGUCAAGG", "log2 enrichment": 0.13}
{"Strand": "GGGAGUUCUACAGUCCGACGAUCUCCUGUGCUACACAUCGUAUGUACCGAAUCGGGCCCCCCGGCCCCCCGGGCCCCCCGGGGAAAGUAUUAUGUUACGCCGUUCGGAUCUGCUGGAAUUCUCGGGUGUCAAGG", "log2 enrichment": 0.291}
{"Strand": "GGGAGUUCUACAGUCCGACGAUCAAGUCCUGUGCUACACAUCGUAUGUACCGAAUCGGGAAAAGGGGAAAAGGAAAAGGAAAGUAUUAUGUUACGCCGUUCGGAUCUGCACUUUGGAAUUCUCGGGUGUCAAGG", "log2 enrichment": -0.565}
{"Strand": "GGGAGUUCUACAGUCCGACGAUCGUCCUGUGCUACACAUCGUAUGUACCGAAUCGGGGAAAGGGGAAAAAAAGGGGAGGGGAAAGUAUUAUGUUACGCCGUUCGGAUCUGCACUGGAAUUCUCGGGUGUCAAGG", "log2 enrichment": 1.22}
{"Strand": "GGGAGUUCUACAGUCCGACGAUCCUCAAGUCCUGUGCUACACAUCGUAUGUACCGAAUCGGGUGGGGUGGGGUGGGGAAAGUAUUAUGUUACGCCGUUCGGAUCUGCACUUCCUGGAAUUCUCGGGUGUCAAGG", "log2 enrichment": -0.615}
{"data": "Single results of other studies", "P1": "viral docking peptide; YKVKRRLVFGADD; partner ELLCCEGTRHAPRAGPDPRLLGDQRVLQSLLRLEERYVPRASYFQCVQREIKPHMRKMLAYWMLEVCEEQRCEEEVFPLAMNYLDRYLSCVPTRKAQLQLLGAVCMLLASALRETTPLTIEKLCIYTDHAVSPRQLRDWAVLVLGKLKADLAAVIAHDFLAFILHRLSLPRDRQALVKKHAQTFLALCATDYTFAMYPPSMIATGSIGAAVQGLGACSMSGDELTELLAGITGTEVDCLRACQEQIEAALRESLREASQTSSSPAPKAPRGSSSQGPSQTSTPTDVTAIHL"}
{"Substance": "P1 K4L", "tested on": "CCND3, cyclin fold, Cln2 fusion (human)", "assay": "yeast growth competition, sequencing", "test system": "yeast", "conditions": "weak parent motif", "scale": "baseline: not given, higher = stronger binding", "endpoint": "normalised enrichment score", "value": -0.163}
{"Substance": "SUCLG1 (Homo sapiens, UniProt P53597)", "tested on": "SUCLG2 (Homo sapiens, UniProt Q96I99)", "assay": "cross-linking MS", "test system": "cell fractions", "conditions": "added: DSSO", "endpoint": "cross-linked residues", "value": "K308 to K132"}
{"note": "For quick reference, copied from above (block 2):"}
{"Strand": "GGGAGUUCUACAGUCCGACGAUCUCCUGUGCUACACAUCGUAUGUACCGAAUCGGGCCCCCCGGCCCCCCGGGCCCCCCGGGGAAAGUAUUAUGUUACGCCGUUCGGAUCUGCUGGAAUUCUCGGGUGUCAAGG", "log2 enrichment": 0.291}
